Published values collected from several papers.
Each line is one published result; not all experiments were run side by side. ± gives the spread as reported.
Method: steady-state kinetics
B1: ABHD14B (Homo sapiens, UniProt Q96IU4); chain MAASVEQREGTIQVQGQALFFREALPGSGQARFSVLLLHGIRFSSETWQNLGTLHRLAQAGYRAVAIDLPGLGHSKEAAAPAPIGELAPGSFLAAVVDALELGPPVVISPSLSGMYSLPFLTAPGSQLPGFVPVAPICTDKINAANYASVKTPALIVYGDQDPMGQTSFEHLKQLPNHRVLIMKGAGHPCYLDKPEEWHTGLLDFLQGLQ
B2: TcC (Trypanosoma cruzi, UniProt Q4DGA3); chain MPREYEFAEKILFTEEEIRTRIMEVAKRIADDYKGKGLRPYVNPLVLISVLKGSFMFTADLCRALSDFNVPVRMEFICVSSYGEGVTSSGQVRMLLDTRHSIEGHHVLIVEDIVDTALTLNYLYHMYFTRRPASLKTVVLLDKREGRRVPFSADYVVANIPNAFVIGYGLDYDDTYRELRDIVVLRPEVYAEREAARQKKQRAIGSADTDRDAKREFHSKY
B3: putA (Rhodobacter capsulatus, UniProt D5AN87); chain MTDLSALGPKAKFAPEAEVLQALVAQAALPQPQLDRIAARGADLVARIRAEAKPSLMEHFLAQYGLSTREGVALMCLAEAMLRVPDTATIDALIEDKIAPSDWGKHLGTAASSLVNASTWALMLTGKVLDDGAGGIAGTLRGAMRRLGEPVIRAAVGQAMREMGRQFVLGETIEKALERAEKREAEGYTFSYDMLGEAALTAADAERYRLAYAQAITAIGKAATRGSIAANPGISIKLSALHPRYEVAQEARVMAELVPVVRDLARAAARAGIALHIDAEEQDRLALSLRVMAAVIADPETAGWEGFGAVVQAYGKRAGAAIDALAAMARAAGRRINIRLVKGAYWDAEMKRAQVEGHPGFPLFTSKTGTDVAYICLAAKLFGLNDCIYPQFATHNAHTVAAVLEMAAGRPFEFQRLHGMGARLHDIVLRETGGRCRIYAPVGAHRDLLAYLVRRLLENGANSSFVNQIVNESVPPAEVAACPFAALPTARAPRGLLAPADLFGAGRVNAQGFDLSDPEVLARIEAARDVTLPDAAPIVAGPVSGTLRPVRNPATGAVVAQVTEADAATVALALDAAQVWSAPAATRAAVLCRAADLYEENFGPIFAALAQEAGKTLGDAVSELREAVDFLRYYAAEGAADTRPPRGAVVAISPWNFPLAIFTGQVAAALMAGNAVLAKPAEQTPIIAALAVRLLHQAGVPETALQLLPGDGPTVGAALTRDPRVAGVVFTGSTETAQIIARAMAAHLAPGTPLIAETGGLNAMVVDSTALPEQAVRDVVASAFRSAGQRCSALRCLYVQDDIAPHLIGMLKGAMEELVSGDPARLSTDVGPVIDAEAKAGIETYLAANKARILHRSTAPEGGHFVAPALLQVGGIADLEREIFGPVLHLATFAAEDLPAVIAAINARGYGLTFGLHSRIDARVETVAETIRAGNIYVNRNQIGAVVGSQPFGGEGLSGTGPKAGGPLYLNRFYAPEPVVAVGGWTEAATPILPEARETQLDEIFLPGPTGELNRLTRHQRGPILCLGPGAEAASAQAAAVVALGGQAVQASGAVSPKALETLTPLAGVLWWGAAEMGRAYAQALAVRPGPLVPLITAKPDLAHVAHERHLCVDTTAAGGNAALLAG
B4: onr (Enterobacter cloacae, UniProt P71278); chain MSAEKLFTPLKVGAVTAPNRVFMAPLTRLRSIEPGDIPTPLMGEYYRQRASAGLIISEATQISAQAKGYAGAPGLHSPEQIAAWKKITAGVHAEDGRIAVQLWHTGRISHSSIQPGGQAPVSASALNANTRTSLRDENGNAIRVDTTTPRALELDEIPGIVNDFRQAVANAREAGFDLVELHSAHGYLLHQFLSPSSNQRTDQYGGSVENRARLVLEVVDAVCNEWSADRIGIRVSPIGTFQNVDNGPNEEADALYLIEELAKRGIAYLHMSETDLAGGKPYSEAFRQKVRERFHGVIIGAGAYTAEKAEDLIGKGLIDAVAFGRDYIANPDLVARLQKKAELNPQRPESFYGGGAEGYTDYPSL
B5: acryloyl-CoA reductase (Metallosphaera sedula, UniProt A4YGN2); chain MKAVVVKGHKQGYEVREVQDPKPASGEVIIKVRRAALCYRDLLQLQGFYPRMKYPVVLGHEVVGEILEVGEGVTGFSPGDRVISLLYAPDGTCHYCRQGEEAYCHSRLGYSEELDGFFSEMAKVKVTSLVKVPTRASDEGAVMVPCVTGMVYRGLRRANLREGETVLVTGASGGVGIHALQVAKAMGARVVGVTTSEEKASIVGKYADRVIVGSKFSEEAKKEDINVVIDTVGTPTFDESLKSLWMGGRIVQIGNVDPTQSYQLRLGYTILKDIAIIGHASATRRDAEGALKLTAEGKIRPVVAGTVHLEEIDKGYEMLKDKHKVGKVLLTT
B6: BaiA1 (Clostridium scindens, UniProt P07914); chain MKLVQDKITIITGGTRGIGFAAAKLFIENGAKVSIFGETQEEVDTALAQLKELYPEEEVLGFAPDLTSRDAVMAAVGTVAQKYGRLDVMINNAGITMNSVFSRVSEEDFKNIMDINVNGVFNGAWSAYQCMKDAKQGVIINTASVTGIYGSLSGIGYPTSKAGVIGLTHGLGREIIRKNIRVVGVAPGVVDTDMTKGLPPEILEDYLKTLPMKRMLKPEEIANVYLFLASDLASGITATTISVDGAYRP
B7: sacB S422A (Priestia megaterium, UniProt D5DC07); chain KGNDSKDFNNSYGISHITRDNMVKIPQQQNSDQFKVPAFDESTIKNIASAKGKNASGNTIDLDVWDSWPLQNADGTVATYHGYQIVFALAGDPKDSNDTSVYLFYKKAGDKSIDSWKNAGRVFKDSDKFVPNDPHLKNQTQEWSGSGTLTKDGKVRLFYTDYSGKQYGKQTLTTAQVNMSQPNDNTLKVDGVEDYKSIFDGDGKIYQTVQQFIDEGGYDTGDNHTLRDPHYIEDNGHKYLVFEANTGTEDGYQGEDSLYNRAYYGGNNPFFQSEKKKLLEGSNKEKASLANGALGIIELNDDYTLKKVMKPLITSNTVTDEIERANIFKKDGKWYLFTDSRGSKMTIDGIGQDDVYMLGYVSNTLTGKYKPLNDTGLVLHMDLDPNDKTFTYAHFAVPQTKGDNVVITSYMTNRGFYEDNHSTFAPSFLVNIDGSKTSVVKDRVLEQGQLTVDED
B8: YeiR (Escherichia coli, UniProt P33030); chain MTRTNLITGFLGSGKTTSILHLLAHKDPNEKWAVLVNEFGEVGIDGALLADSGALLKEIPGGCMCCVNGLPMQVGLNTLLRQGKPDRLLIEPTGLGHPKQILDLLTAPVYEPWIDLRATLCILDPRLLLDEKSASNENFRDQLAAADIIVANKSDRTTPESEQALQRWWQQNGGDRQLIHSEHGKVDGHLLDLPRRNLAELPASAAHSHQHVVKKGLAALSLPEHQRWRRSLNSGQGYQACGWIFDADTVFDTIGILEWARLAPVERVKGVLRIPEGLVRINRQGDDLHIETQNVAPPDSRIELISSSEADWNALQSALLKLRLATTA
B9: ASRGL1 (Homo sapiens, UniProt Q7L266); chain 1 MNPIVVVHGGGAGPISKDRKERVHQGMVRAATVGYGILREGGSAVDAVEGAVVALEDDPEFNAGCGSVLNTNGEVEMDASIMDGKDLSAGAVSAVQCIANPIKLARLVMEKTPHCFLTDQGAAQFAAAMGVPEIPGEKLVTERNKKRLEKEKHEKGAQKTDCQKNLG; chain 2 TVGAVALDCKGNVAYATSTGGIVNKMVGRVGDSPCLGAGGYADNDIGAVSTTGHGESILKVNLARLTLFHIEQGKTVEEAADLSLGYMKSRVKGLGGLIVVSKTGDWVAKWTSTSMPWAAAKDGKLHFGIDPDDTTITDLP
B10: Tat (Mus musculus, UniProt Q8QZR1); chain WNVRPSDMSNKTFNPIRAIVDNMKVKPNPNKTVISLSIGDPTVFGNLPTDPEVTQAMKDALDSGKYNGYAPSIGYLSSREEVASYYHCPEAPLEAKDVILTSGCSQAIELCLAVLANPGQNILIPRPGFSLYRTLAESMGIEVKLYNLLPEKSWEIDLKQLESLIDEKTACLVVNNPSNPCGSVFSKRHLQKILAVAERQCVPILADEIYGDMVFSDCKYEPMATLSTNVPILSCGGLAKRWLVPGWRLGWILIHDRRDIFGNEIRDGLVKLSQRILGPCTIVQGALKSILQRTPQEFYQDTLSFLKSNADLCYGALSAIPGLQPVRPSGAMYLMVGIEMEHFPEFENDVEFTERLIAEQSVHCLPATCFEYPNFFRVVITVPEVMMLEACSRIQEFCEQHY
B11: protein Y93A (Thermus thermophilus, UniProt Q5SKR5); chain MSAPKPFVIGIAGGTASGKTTLAQALARTLGERVALLPMDHYYKDLGHLPLEERLRVNYDHPDAFDLALYLEHAQALLRGLPVEMPVYDFRAATRSPRRTPVRPAPVVILEGILVLYPKELRDLMDLKVFVDADADERFIRRLKRDVLERGRSLEGVVAQYLEQVKPMHLHFVEPTKRYADVIVPRGGQNPVALEMLAAKALARLARMGAA
Chain of UniProt P50743 (whole entry, looked up): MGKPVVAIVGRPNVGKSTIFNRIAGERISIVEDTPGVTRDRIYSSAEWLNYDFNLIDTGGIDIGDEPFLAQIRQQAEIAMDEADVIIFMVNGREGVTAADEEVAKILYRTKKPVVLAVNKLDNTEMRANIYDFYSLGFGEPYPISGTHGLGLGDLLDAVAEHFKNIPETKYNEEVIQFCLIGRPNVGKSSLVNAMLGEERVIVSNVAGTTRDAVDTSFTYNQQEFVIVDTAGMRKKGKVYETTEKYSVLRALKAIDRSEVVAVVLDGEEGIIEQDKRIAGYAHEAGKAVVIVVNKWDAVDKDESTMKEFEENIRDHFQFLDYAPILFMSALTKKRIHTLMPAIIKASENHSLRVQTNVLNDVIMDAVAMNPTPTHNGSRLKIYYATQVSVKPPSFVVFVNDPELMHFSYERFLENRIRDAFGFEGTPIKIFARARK
Chain of UniProt Q99042 (whole entry, looked up): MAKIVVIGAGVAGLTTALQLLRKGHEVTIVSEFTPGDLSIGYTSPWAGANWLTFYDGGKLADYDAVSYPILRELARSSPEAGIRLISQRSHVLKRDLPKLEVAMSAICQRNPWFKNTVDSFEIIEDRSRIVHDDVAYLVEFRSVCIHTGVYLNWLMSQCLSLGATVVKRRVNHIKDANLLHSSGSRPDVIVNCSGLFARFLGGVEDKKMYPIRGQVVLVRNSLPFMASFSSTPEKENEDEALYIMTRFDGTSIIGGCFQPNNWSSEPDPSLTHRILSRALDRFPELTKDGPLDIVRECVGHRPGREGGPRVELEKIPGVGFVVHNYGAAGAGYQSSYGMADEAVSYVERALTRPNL
Chain of UniProt A1ZAW0 (whole entry, looked up): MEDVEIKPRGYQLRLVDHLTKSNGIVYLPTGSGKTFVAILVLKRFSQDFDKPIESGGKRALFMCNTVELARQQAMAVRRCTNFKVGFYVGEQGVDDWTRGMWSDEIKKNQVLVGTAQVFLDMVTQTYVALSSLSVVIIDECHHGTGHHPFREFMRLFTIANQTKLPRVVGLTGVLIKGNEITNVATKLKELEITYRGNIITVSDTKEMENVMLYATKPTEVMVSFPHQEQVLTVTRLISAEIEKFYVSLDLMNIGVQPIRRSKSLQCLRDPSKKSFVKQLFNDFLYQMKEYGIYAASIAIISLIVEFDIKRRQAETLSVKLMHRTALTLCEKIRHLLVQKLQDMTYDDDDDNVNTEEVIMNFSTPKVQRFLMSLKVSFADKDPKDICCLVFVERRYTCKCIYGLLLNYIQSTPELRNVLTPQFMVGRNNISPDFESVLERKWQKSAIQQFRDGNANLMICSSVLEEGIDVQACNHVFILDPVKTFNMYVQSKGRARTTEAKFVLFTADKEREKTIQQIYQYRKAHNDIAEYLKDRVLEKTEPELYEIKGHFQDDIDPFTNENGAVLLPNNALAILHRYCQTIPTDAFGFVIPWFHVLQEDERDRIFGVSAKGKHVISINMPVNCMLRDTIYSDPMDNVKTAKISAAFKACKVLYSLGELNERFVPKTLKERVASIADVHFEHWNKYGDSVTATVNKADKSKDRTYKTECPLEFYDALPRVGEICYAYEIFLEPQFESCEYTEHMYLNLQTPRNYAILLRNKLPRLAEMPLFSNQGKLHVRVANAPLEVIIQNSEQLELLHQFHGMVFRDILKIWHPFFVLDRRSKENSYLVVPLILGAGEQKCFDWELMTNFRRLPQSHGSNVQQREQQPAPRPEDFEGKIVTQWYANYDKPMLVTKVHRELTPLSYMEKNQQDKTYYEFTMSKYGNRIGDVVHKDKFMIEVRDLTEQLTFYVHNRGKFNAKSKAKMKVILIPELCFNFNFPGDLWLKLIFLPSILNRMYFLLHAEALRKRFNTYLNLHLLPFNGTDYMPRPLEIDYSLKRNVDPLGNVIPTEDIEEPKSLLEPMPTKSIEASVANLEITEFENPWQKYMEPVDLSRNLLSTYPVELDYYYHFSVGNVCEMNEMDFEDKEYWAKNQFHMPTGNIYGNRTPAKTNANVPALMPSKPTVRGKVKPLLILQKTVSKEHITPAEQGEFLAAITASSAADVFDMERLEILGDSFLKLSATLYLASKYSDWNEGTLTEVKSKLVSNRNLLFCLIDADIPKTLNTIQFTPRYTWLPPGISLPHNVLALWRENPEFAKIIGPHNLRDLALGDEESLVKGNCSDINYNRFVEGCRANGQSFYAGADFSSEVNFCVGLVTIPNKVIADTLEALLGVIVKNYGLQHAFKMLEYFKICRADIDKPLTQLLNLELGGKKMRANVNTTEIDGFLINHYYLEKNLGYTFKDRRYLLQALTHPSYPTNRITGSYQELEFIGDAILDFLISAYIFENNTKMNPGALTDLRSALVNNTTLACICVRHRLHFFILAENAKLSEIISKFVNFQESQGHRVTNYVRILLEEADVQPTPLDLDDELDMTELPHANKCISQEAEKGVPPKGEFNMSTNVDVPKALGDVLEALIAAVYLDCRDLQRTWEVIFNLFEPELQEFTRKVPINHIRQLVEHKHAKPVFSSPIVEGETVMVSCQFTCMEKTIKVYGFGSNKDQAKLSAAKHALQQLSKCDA
Chain of UniProt Q9UNA4 (whole entry, looked up): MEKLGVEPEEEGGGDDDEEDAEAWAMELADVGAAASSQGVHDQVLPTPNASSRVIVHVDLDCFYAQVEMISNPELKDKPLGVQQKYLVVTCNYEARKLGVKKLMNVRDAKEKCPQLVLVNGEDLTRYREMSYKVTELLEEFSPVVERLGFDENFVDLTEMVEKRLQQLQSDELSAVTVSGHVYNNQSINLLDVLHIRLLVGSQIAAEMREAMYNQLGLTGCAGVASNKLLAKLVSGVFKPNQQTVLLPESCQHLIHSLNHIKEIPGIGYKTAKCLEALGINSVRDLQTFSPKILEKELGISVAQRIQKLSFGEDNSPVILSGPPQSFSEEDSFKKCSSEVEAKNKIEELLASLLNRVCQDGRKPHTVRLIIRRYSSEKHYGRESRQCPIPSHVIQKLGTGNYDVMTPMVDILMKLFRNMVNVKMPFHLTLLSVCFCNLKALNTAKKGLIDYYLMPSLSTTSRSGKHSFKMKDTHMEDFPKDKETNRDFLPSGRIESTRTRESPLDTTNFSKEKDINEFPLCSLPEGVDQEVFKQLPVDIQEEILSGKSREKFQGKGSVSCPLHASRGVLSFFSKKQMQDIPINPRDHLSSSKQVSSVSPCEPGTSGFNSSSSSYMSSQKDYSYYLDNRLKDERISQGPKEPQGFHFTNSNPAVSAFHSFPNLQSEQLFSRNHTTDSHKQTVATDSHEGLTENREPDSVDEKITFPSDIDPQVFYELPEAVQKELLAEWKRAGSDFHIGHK
Chain of UniProt Q8N6T7 (whole entry, looked up): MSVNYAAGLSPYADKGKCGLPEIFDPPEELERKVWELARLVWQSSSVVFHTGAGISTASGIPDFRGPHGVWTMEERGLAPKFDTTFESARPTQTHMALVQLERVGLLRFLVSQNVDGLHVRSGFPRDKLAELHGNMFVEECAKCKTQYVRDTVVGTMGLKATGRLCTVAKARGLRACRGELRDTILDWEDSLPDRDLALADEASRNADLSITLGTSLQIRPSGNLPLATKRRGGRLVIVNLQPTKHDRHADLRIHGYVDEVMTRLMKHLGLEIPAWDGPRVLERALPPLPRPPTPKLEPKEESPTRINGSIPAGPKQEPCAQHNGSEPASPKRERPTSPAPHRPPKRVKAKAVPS

Substance	substrate	conditions	kcat/Km
POLI (Homo sapiens, UniProt Q9UNA4)	Cc1cn([C@H]2C[C@H](O)[C@@H](COP(=O)(O)OP(=O)(O)OP(=O)(O)O)O2)c(=O)[nH]c1=O	pH 8, 37 °C, misinsertion opposite dT, added: Mg2+	24.3 ± 1 M⁻¹ s⁻¹
B1 (ABHD14B)	CC(=O)Oc1ccc([N+](=O)[O-])cc1	pH 8, 37 °C	20.4 ± 2.5 M⁻¹ s⁻¹
DAO1 (Trigonopsis variabilis, UniProt Q99042)	CN(C)c1ccc2nc3ccc(N(C)C)c([N+](=O)[O-])c3[s+]c2c1	pH 8, 22 °C, apparent	3000 M⁻¹ s⁻¹
B2 (TcC)	O=c1[nH]c(=O)c2[nH]cnc2[nH]1	pH 8.3, 37 °C, apparent, added: PRPP 1 mM, MgCl2 12 mM	50 ± 5 M⁻¹ s⁻¹
B3 (putA)	O=C(O)[C@@H]1CCCN1	pH 8, 23 °C	383 ± 4 M⁻¹ s⁻¹
B4 (onr)	CC1=CC(=O)N(c2ccccc2)C1=O	pH 7, 25 °C, apparent, anaerobic, added: NADPH 100 µM	2.47e+06 M⁻¹ s⁻¹
SIRT6 (Homo sapiens, UniProt Q8N6T7)	CSCC[C@H](NC(=O)[C@H](CC(C)C)NC(=O)[C@H](CCCCNC(C)=O)NC(=O)[C@H](CCCCN)NC(=O)[C@H](Cc1c[nH]cn1)NC(=O)[C@H](CCCNC(=N)N)NC(=O)[C@H](CO)NC(=O)[C@@H](NC(=O)[C@H](CO)NC(=O)[C@H](CCC(N)=O)NC(=O)CNC(=O)[C@H](CCCCN)NC(=O)[C@@H](N)CCCCN)[C@@H](C)O)C(=O)N[C@@H](Cc1ccccc1)C(=O)N[C@@H](CCCCN)C(=O)N[C@H](C(=O)N[C@@H](CCC(=O)O)C(=O)NCC(=O)O)[C@@H](C)O	pH 7.5, 37 °C, added: NAD+ 800 µM, SIRT6 10 µM	0.9 M⁻¹ s⁻¹
B5 (acryloyl-CoA reductase)	C=CC(=O)SCCNC(=O)CCNC(=O)[C@H](O)C(C)(C)COP(=O)(O)OP(=O)(O)OC[C@H]1O[C@@H](n2cnc3c(N)ncnc32)[C@H](O)[C@@H]1OP(=O)(O)O	pH 6.5, 65 °C, substrate made in situ, added: ATP, CoA, NADPH	501000 M⁻¹ s⁻¹
B6 (BaiA1)	C[C@H](CCC(=O)SCCNC(=O)CCNC(=O)[C@H](O)C(C)(C)COP(=O)(O)OP(=O)(O)OC[C@H]1O[C@@H](n2cnc3c(N)ncnc32)[C@H](O)[C@@H]1OP(=O)(O)O)[C@H]1CC[C@H]2[C@@H]3CC[C@@H]4C[C@H](O)CC[C@]4(C)[C@H]3C[C@H](O)[C@]12C	pH 8.7, 37 °C, added: NAD+	54200 M⁻¹ s⁻¹
engA (Bacillus subtilis, UniProt P50743)	Nc1nc2c(ncn2[C@@H]2O[C@H](COP(=O)(O)OP(=O)(O)OP(=O)(O)O)[C@@H](O)[C@H]2O)c(=O)[nH]1	pH 7.5, 37 °C, KCl 200 mM, free enzyme, apparent, added: GTP 0-1 mM	114 M⁻¹ s⁻¹
B7 (sacB S422A)	OC[C@H]1O[C@@](CO)(O[C@H]2O[C@H](CO)[C@@H](O)[C@H](O)[C@H]2O)[C@@H](O)[C@@H]1O	pH 6.6	4910 M⁻¹ s⁻¹
Dcr-2 (Drosophila melanogaster, UniProt A1ZAW0)	Nc1ncnc2c1ncn2[C@@H]1O[C@H](COP(=O)(O)OP(=O)(O)OP(=O)(O)O)[C@@H](O)[C@H]1O	pH 7.4, 25 °C, added: dsRNA, magnesium acetate 3.3 mM	117000 ± 33300 M⁻¹ s⁻¹
B8 (YeiR)	Nc1nc2c(ncn2[C@@H]2O[C@H](COP(=O)(O)OP(=O)(O)OP(=O)(O)O)[C@@H](O)[C@H]2O)c(=O)[nH]1	pH 7.5, 37 °C, apo, anaerobic	14 ± 6 M⁻¹ s⁻¹
B9 (ASRGL1)	COC(=O)C[C@H](N)C(=O)O	pH 7.4, 37 °C, NaCl 100 mM	21000 ± 1000 M⁻¹ s⁻¹
B10 (Tat)	N[C@@H](Cc1ccc(O)cc1)C(=O)O	pH 7, 38 °C, 100 mM phosphate, added: 10 mM KGA; PLP	10700 M⁻¹ s⁻¹
B11 (protein Y93A)	Nc1ccn([C@@H]2O[C@H](CO)[C@@H](O)[C@H]2O)c(=O)n1	pH 7.2, 25 °C, KCl 100 mM, added: ATP 100–200 µM	12000 M⁻¹ s⁻¹
